Literature values that unrelated publications cite.
Each line is one published result; not all experiments were run side by side. ± marks the error that the study gave.

Structure (SMILES) | tested on | test | system | conditions | how to read | quantity | value
O=C(OCC[18F])C1C2CCC(CC1c1ccc(/C=C\I)cc1)N2 (centres unmarked) | SERT | microPET | anaesthetised, putamen | – | – | time to peak uptake | 95 min
CSC([S-])=NN=Cc1ccc(O)cc1[O-].[C-]#[O+].[Ru+2].c1ccc(P(c2ccccc2)c2ccccc2)cc1.c1ccc(P(c2ccccc2)c2ccccc2)cc1 | MCF7 | – | – | 1 day | – | apoptotic activity | 41.2 µM
CCCCCCCC(=O)NCC(=O)N[C@@H](C)C(=O)N[C@@H](CC(C)C)C(=O)N[C@](C)(CC)C(=O)N[C@@H](C)C(=O)N[C@H](C(=O)N[C@H](CO)CC(C)C)[C@@H](C)CC | A549 | cell growth, MTT | – | – | – | IC50 | 4 µM
CC(C)c1c(O)c(O)c2c(c1O)C(=O)C(O)=C1C(C)(C)CCCC12C (centres unmarked) | MCF7 | – | – | – | – | GI50 | 5.5 ± 0.8 µM
CC1=C(C)C(=O)OC(C(C)(O)C2(O)CCC3(O)C4CC5OC56CC=CC(=O)C6(C)C4CCC32C)C1 (centres unmarked) | Hep G2 | cell growth | – | – | – | IC50 | 0.64 µM
CN[C@H](CC(C)C)C(=O)N[C@H]1C(=O)N[C@@H](CC(N)=O)C(=O)N[C@H]2C(=O)N[C@H]3C(=O)N[C@H](C(=O)N[C@H](C(=O)O)c4cc(O)cc(O)c4-c4cc3ccc4O)[C@H](O)c3ccc(c(Cl)c3)Oc3cc2cc(c3O[C@@H]2O[C@H](CO)[C@@H](O)[C@H](O)[C@H]2O[C@H]2C[C@](C)(NCc3ccc(-c4ccc(Cl)cc4)cc3)[C@H](O)[C@H](C)O2)Oc2ccc(cc2Cl)[C@H]1O | – | – | mouse, plasma | intravenous, 75 mg/kg (MTD) | – | Cmax | 125 µg/mL
CC1=C(CO)C(=O)OC(C(C)C2CC3OC34C3CC5OC56C(O)C=CC(=O)C6(C)C3CCC24C)C1 (centres unmarked) | NCI-H460 | cell growth | – | – | – | IC50 | 3.1 µM
C[C@H](NC(=O)[C@H](Cc1c[nH]cn1)NC(=O)[C@H](CO)NC(=O)[C@@H](N)CC(=O)O)C(=O)N[C@@H](CCCCN)C(=O)N[C@@H](CCCNC(=N)N)C(=O)N[C@@H](Cc1c[nH]cn1)C(=O)N[C@@H](Cc1c[nH]cn1)C(=O)NCC(=O)N[C@@H](Cc1ccc(O)cc1)C(=O)N[C@@H](CCCCN)C(=O)N[C@@H](CCCNC(=N)N)C(=O)N[C@@H](CCCCN)C(=O)N[C@@H](Cc1ccccc1)C(=O)N[C@@H](Cc1c[nH]cn1)C(=O)N[C@@H](CCC(=O)O)C(=O)N[C@@H](CCCCN)C(=O)N[C@@H](Cc1c[nH]cn1)C(=O)N[C@@H](Cc1c[nH]cn1)C(=O)N[C@@H](CO)C(=O)N[C@@H](Cc1c[nH]cn1)C(=O)N[C@@H](CCCNC(=N)N)C(=O)NCC(=O)N[C@@H](Cc1ccc(O)cc1)C(=O)O | human gingival fibroblasts | IL8 production | – | 3.3 µM, added: Porphyromonas gingivalis outer-membrane protein 10.0 µg/mL | – | inhibition | 47%
C=CCc1cc(OC)c(OC)c(OC)c1OC | HT-29 | cell growth | – | – | – | IC50 | 298 µM
CC1=C(C)C(=O)OC(C(C)(O)C2(O)CCC3(O)C4CC5OC56C(O)C=CC(=O)C6(C)C4CCC32C)C1 (centres unmarked) | MCF7/BUS | – | – | – | – | IC50 | 1.1 µM
C#CCN[C@@H]1C=C[C@]2(O[C@H]([C@@H](CC)C(=O)[C@@H](C)[C@@H](O)[C@H](C)[C@@H]3O[C@@H]([C@@H](CC)C(=O)O)CC[C@@H]3C)[C@@H](C)C[C@H]2C)O[C@@]12CC[C@@](C)([C@H]1CC[C@](O)(CC)[C@H](C)O1)O2 | HMLER CD24low/CD44high | – | – | – | relative to: salinomycin | relative potency | ~10
COC[C@@H](NC(C)=O)C(=O)NCc1ccc(OCc2cccc(F)c2)cc1 | CAD | – | – | 8.5 µM, use-dependent | – | sodium current reduction | 40%
F[P-](F)(F)(F)(F)F.NCCN.[Cl][Ru+].c1ccc(-c2ccccc2)cc1 | MDA-MB-231 | cell viability, MTT | – | 24 h | – | IC50 | 62 µM
CC(C)=CCC/C(C)=C/C[P+](c1ccccc1)(c1ccccc1)c1ccccc1 | PC-3 | cell growth | – | – | – | GI50 | 1.2 µM

Some of these lines once more:
Structure (SMILES) | tested on | test | system | conditions | how to read | quantity | value
CCCCCCCC(=O)NCC(=O)N[C@@H](C)C(=O)N[C@@H](CC(C)C)C(=O)N[C@](C)(CC)C(=O)N[C@@H](C)C(=O)N[C@H](C(=O)N[C@H](CO)CC(C)C)[C@@H](C)CC | A549 | cell growth, MTT | – | – | – | IC50 | 4 µM
CC(C)c1c(O)c(O)c2c(c1O)C(=O)C(O)=C1C(C)(C)CCCC12C (centres unmarked) | MCF7 | – | – | – | – | GI50 | 5.5 ± 0.8 µM
